Published values pooled from the literature.
Each line is one published result; not all experiments were run side by side. Values joined by “and” are separate records of one study, mostly repeats; a detail may differ. Numbers after ± are the reported error. Values after ≈ are worked out from the molar mass of the structure shown.

SMILES | organism | test | test system | conditions | how to read | measurement | value
COc1cc(C[C@@H](C)N)c(OC)cc1I | Plasmodium falciparum | – | GB4 | – | – | IC50 | 10000 nM
Nc1ccn(C[C@@H](CO)OCP(=O)(O)O)c(=O)n1 | Fowlpox virus | viral infection | CEF | 12.5 µM | reference: untreated | infection | 92.5% and 100% and 105%
O=C(OCCCc1ccccc1)c1ccc(Oc2ccc(O)cc2)cc1 | Magnaporthe oryzae | – | Guy11, rice leaves | concentration not given | – | lesion area | decreased
O=C(O)c1cnccn1 | Mycobacterium bovis | – | BCG ATCC 35734 | 120 h | – | MIC50 | 800 µM (≈ 99.3 µg/mL)
CC(=O)N[C@H]1[C@H]([C@H](O)[C@H](O)CO)OC(C(=O)O)=C[C@@H]1N=C(N)N | influenza A virus H3N2 | viral cytopathic effect, MTS | MDCK | – | – | EC50 | 400 nM
CC(C)(C)C(O)(CCc1ccc(Cl)cc1)Cn1cncn1 (centres unmarked) | Botrytis cinerea | fungal growth, inhibitor | B05.10 wild type | 168 h | – | EC50 | 131 ± 58.9 nM
CS(=O)(=O)Nc1ncn(-c2cc(F)c(COc3ccc(OS(=O)(=O)F)cc3)c(F)c2)n1 | Mycobacterium tuberculosis | – | drug-resistant clinical isolate, lineage 2 | – | – | MIC | 0.02 µM
NC[C@H]1O[C@H](O[C@H]2[C@H](O)[C@@H](O[C@H]3O[C@H](CO)[C@@H](O)[C@H](N)[C@H]3O)[C@H](N)C[C@@H]2N)[C@H](O)[C@@H](O)[C@@H]1O | Mycobacterium bovis | – | BCG | – | – | MIC | 0.625 µg/mL
CCCCCCC(=O)CCCCCC/C=C/C[C@@H](O)[C@H](O)[C@@](N)(CO)C(=O)O | Botrytis cinerea | fungal growth, inhibitor | B05.10 wild type | 168 h | – | EC50 | 934 ± 34.1 nM
OC(Cn1cncn1)(Cn1cncn1)c1ccc(F)cc1F | Saccharomyces cerevisiae | cell growth | Pdr5 deleted, Cdr1 overexpressed | 2^6.129 µg/mL | – | OD600 | 0.192 and 0.232 and 0.126
O=C(Nc1ccccc1-c1ccc(Cl)cc1)c1cccnc1Cl | Botrytis cinerea | fungal growth, inhibitor | B05.10 wild type | 168 h | – | EC50 | 327 ± 173 nM
CC(N)C12CC3CC(CC(C3)C1)C2 (centres unmarked) | influenza A virus H3N2 | viral cytopathic effect, MTS | MDCK | – | – | EC50 | 200 nM
O=C(O)c1nn(Cc2ccc(Cl)cc2Cl)c2ccccc12 | Human coronavirus OC43 | virus-induced cell killing | MRC-5 | – | – | Emax | 18.4%
CC(C)NC(=O)N1CC(=O)N(c2cc(Cl)cc(Cl)c2)C1=O | Botrytis cinerea | fungal growth, inhibitor | B05.10 wild type | 168 h | – | EC50 | 604 ± 286 nM
CCOC(=O)C1=C[C@@H](OC(CC)CC)[C@H](NC(C)=O)[C@@H](N)C1 | influenza A virus H3N2 | – | rat, plasma of treated rats | 30 mg/kg | reference: water-treated rats | plaque reduction | 65.7%
C[C@]12N[C@H](Cc3ccccc31)c1ccccc12 | Plasmodium falciparum | – | W2 | – | – | IC50 | 3980 nM
Cc1cc(C)nc(Nc2ccccc2)n1 | Botrytis cinerea | fungal growth, inhibitor | B05.10 wild type | 168 h | – | EC50 | 250 ± 4.4 nM

For quick reference, copied from above:
SMILES | organism | test | test system | conditions | how to read | measurement | value
NC[C@H]1O[C@H](O[C@H]2[C@H](O)[C@@H](O[C@H]3O[C@H](CO)[C@@H](O)[C@H](N)[C@H]3O)[C@H](N)C[C@@H]2N)[C@H](O)[C@@H](O)[C@@H]1O | Mycobacterium bovis | – | BCG | – | – | MIC | 0.625 µg/mL
O=C(OCCCc1ccccc1)c1ccc(Oc2ccc(O)cc2)cc1 | Magnaporthe oryzae | – | Guy11, rice leaves | concentration not given | – | lesion area | decreased
